Measured values of several laboratories.
Every numbered part comes from another study and shows a few of its results, in no order.
Sequence of UniProt Q99759 (whole entry, looked up): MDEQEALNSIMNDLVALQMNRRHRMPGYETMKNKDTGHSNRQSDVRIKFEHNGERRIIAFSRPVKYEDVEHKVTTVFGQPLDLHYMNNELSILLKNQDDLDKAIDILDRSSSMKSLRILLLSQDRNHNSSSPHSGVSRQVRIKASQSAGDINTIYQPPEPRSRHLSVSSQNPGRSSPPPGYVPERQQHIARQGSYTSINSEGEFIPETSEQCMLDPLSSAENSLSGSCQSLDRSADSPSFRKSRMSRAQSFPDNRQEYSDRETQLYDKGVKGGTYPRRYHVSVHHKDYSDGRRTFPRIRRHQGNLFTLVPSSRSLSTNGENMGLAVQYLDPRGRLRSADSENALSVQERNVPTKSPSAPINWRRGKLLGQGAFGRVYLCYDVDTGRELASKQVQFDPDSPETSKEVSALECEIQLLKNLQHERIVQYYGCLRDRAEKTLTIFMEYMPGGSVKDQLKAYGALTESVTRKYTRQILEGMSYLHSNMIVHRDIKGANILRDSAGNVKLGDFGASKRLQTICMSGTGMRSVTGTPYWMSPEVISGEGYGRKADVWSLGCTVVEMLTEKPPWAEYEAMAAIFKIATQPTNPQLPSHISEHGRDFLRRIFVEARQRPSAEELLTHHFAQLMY
Sequence of UniProt P45985 (whole entry, looked up): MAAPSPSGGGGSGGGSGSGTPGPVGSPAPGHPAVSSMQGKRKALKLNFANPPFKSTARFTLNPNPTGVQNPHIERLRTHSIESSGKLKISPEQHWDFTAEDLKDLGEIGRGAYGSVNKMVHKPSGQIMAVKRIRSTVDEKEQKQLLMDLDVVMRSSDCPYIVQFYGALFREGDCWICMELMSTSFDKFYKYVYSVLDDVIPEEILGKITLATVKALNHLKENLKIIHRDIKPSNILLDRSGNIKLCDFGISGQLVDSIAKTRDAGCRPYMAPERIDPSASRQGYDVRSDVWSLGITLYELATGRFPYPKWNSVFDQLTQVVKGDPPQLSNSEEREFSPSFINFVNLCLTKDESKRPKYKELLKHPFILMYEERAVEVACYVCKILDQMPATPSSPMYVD
Sequence of UniProt Q6ZN16 (whole entry, looked up): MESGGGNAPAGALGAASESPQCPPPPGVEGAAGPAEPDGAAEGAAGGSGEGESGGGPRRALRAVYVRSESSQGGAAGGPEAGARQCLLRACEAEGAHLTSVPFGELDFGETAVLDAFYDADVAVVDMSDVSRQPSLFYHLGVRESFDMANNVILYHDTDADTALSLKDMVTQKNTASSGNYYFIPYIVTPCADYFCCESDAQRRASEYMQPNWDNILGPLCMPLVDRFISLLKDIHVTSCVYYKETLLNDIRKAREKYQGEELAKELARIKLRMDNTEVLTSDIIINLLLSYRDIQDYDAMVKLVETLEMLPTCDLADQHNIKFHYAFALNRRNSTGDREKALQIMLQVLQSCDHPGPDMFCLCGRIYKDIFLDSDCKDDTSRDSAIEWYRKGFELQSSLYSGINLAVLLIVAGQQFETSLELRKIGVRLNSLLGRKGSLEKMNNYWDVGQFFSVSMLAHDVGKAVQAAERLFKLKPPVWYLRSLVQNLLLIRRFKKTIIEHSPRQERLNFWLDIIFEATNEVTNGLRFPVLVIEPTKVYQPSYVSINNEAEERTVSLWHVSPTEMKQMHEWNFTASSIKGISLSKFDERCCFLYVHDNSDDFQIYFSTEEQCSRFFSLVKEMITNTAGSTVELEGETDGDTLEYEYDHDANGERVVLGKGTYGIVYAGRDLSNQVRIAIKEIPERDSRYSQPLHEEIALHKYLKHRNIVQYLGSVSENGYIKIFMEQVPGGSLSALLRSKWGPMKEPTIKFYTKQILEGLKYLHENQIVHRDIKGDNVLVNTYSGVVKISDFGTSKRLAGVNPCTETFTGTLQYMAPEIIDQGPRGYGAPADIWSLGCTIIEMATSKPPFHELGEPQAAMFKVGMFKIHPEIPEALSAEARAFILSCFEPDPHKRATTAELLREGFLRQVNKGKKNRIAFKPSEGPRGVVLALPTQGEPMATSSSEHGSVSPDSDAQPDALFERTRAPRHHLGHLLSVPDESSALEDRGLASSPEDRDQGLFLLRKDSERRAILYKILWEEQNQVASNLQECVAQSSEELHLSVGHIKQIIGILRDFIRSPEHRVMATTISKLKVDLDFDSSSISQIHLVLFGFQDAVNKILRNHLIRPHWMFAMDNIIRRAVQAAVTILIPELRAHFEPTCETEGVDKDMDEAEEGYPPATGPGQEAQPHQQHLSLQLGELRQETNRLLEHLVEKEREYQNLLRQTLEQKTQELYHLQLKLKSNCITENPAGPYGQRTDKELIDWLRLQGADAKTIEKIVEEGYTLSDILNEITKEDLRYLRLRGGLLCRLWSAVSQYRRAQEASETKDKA
Sequence of UniProt Q9NRP7 (whole entry, looked up): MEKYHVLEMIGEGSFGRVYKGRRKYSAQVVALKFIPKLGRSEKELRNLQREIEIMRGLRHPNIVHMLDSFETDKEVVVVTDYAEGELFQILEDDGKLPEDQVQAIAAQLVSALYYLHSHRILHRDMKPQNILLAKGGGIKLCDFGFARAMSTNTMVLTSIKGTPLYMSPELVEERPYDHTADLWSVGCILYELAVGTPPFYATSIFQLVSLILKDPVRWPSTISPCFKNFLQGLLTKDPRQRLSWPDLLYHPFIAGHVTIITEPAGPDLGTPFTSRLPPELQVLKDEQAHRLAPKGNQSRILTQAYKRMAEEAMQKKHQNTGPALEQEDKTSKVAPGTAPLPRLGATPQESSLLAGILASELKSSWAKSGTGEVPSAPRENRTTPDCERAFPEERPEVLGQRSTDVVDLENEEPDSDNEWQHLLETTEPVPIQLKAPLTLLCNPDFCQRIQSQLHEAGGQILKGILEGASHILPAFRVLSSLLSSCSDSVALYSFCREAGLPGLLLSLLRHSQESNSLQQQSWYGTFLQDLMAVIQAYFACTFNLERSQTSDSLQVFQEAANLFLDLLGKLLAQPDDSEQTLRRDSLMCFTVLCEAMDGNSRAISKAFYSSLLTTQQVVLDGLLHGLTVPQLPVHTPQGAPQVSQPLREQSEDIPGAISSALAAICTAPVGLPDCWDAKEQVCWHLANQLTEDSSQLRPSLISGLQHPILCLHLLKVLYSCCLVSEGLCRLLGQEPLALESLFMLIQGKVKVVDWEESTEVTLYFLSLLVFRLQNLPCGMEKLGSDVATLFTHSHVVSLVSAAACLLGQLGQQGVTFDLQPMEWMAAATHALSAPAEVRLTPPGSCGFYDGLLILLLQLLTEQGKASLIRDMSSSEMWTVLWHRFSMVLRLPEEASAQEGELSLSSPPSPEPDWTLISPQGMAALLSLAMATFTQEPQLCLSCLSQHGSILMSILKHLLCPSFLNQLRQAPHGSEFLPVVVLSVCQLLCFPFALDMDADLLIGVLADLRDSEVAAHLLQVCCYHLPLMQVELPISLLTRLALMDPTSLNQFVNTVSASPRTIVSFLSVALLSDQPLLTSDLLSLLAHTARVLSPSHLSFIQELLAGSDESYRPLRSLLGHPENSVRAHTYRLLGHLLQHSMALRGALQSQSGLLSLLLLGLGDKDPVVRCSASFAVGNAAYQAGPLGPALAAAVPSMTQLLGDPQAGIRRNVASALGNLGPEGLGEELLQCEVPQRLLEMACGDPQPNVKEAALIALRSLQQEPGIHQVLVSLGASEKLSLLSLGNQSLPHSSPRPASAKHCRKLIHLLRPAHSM

Block 1
Target: Receptor tyrosine-protein kinase erbB-4 (ERBB4, Homo sapiens, UniProt Q15303)
Sequence of UniProt Q15303 (whole entry, looked up): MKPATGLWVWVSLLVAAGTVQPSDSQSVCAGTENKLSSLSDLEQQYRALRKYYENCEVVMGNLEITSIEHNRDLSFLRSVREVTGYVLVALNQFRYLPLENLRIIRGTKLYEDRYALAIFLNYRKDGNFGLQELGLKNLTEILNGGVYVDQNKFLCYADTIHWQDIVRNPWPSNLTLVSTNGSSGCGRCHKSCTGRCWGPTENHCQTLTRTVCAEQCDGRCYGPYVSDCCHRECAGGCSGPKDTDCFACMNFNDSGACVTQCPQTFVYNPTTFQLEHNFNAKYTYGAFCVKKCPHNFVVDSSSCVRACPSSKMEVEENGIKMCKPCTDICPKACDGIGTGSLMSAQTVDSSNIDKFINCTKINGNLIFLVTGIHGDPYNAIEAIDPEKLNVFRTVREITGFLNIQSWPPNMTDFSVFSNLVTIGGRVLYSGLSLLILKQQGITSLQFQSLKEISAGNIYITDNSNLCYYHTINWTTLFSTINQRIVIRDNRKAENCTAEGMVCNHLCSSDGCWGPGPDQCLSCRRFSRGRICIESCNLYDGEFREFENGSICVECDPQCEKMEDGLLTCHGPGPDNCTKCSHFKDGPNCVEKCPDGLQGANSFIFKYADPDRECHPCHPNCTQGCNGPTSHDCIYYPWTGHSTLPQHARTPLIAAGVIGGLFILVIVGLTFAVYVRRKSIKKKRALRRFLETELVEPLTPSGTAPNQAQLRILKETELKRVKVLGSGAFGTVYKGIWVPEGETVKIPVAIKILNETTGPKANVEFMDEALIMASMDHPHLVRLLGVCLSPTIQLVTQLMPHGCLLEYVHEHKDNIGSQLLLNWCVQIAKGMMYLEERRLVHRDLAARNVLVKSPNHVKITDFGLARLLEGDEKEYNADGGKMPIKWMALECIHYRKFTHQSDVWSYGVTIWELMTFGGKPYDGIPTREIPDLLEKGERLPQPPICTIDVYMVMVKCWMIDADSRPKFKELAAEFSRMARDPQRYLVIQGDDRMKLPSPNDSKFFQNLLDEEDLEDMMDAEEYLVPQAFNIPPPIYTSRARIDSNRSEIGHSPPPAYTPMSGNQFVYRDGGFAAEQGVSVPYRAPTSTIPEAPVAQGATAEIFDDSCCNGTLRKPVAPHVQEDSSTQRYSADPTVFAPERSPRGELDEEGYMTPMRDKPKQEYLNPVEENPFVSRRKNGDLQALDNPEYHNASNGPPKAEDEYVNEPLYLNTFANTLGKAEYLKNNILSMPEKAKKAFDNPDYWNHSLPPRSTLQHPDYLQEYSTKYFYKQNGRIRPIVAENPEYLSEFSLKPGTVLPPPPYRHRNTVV
Read-out: enzyme activity
Action: inhibitor
Concentration: 0.5 µM
Baseline: control
Endpoint: remaining activity
Structure (SMILES) = N#Cc1c(NC(=O)c2cccc3ccccc23)sc2c1CCCC2; value = 99.8%
Structure (SMILES) = COc1cc2ncnc(Nc3cccc(Cl)c3)c2cc1OC; value = 35.5%
Structure (SMILES) = O=C(Nc1cccc(Nc2nccc(Nc3cccc(C(F)(F)F)c3)n2)c1)C1CC1; value = 103%
Structure (SMILES) = C[C@@H]1CCN(C(=O)CC#N)C[C@@H]1N(C)c1ncnc2[nH]ccc12; value = 100%
Structure (SMILES) = Nc1cccc(-c2cc3c(Oc4cccc(O)c4)ncnc3[nH]2)c1; value = 75.8%
Structure (SMILES) = COc1cc2c(cc1OC)-c1[nH]nc(Nc3cccc(F)c3)c1C2; value = 96.5%
Structure (SMILES) = O=C1C(Cl)=C(N2C(=O)CCC2=O)C(=O)c2ccccc21; value = 110%
Structure (SMILES) = Cc1nc2cc3nc(-c4cccs4)cnc3cc2n1C; value = 95%
Structure (SMILES) = COc1cc2ncnc(Nc3ccc(O)c(Br)c3)c2cc1OC; value = 29.1%
Structure (SMILES) = CN([C@@H](Cc1ccc(OS(=O)(=O)c2cccc3cnccc23)cc1)C(=O)N1CCN(c2ccccc2)CC1)S(=O)(=O)c1cccc2cnccc12; value = 103%
Structure (SMILES) = Ic1cccc(CSc2nnc(-c3ccncc3)o2)c1; value = 96.4%
Structure (SMILES) = Cc1cc2ncc(-c3ccccc3)nc2cc1C; value = 96.4%

Block 2
Structure (SMILES): CC(=O)N[C@@H](Cc1c[nH]c2ccccc12)C(=O)N[C@@H](CCC(=O)C=[N+]=[N-])C(=O)OC(C)C
Dose: dose not given
Baseline: vehicle
Endpoint: log2 fold change
assay = item: 1,5-anhydroglucitol; system = mouse, EL4 tumour, tumour; value = 0.233
assay = item: pentose acid; system = Mus musculus, EL4 tumour; value = 0.322
assay = item: phenylpyruvate; system = mouse, EL4 tumour-bearing, EL4 tumour; value = 0.353
assay = item: galactitol; system = mouse, EL4 tumour, tumour; value = 0.559
assay = item: N-methylproline; system = mouse, EL4 tumour-bearing, EL4 tumour; value = -0.395
assay = item: mannose 6-phosphate; system = mouse, EL4 tumour-bearing, EL4 tumour; value = 0.775
assay = metabolomics, item: 5-methyluridine; system = mouse, EL4 tumour; value = -0.538
assay = item: N-acetylserine; system = mouse, EL4 tumour-bearing, EL4 tumour; value = -0.522

Block 3
Structure (SMILES): N#Cc1ccc(Nc2ccc3[nH]c(=O)[nH]c3c2)c(Cl)c1
Read-out: cell-free assay
Technique: competition with immobilised ligand
Concentration: 1 µM
Endpoint: remaining binding
target = Mitogen-activated protein kinase kinase kinase 15 (MAP3K15, Homo sapiens, UniProt Q6ZN16); value = 68%
target = Serine/threonine-protein kinase 16 (STK16, Homo sapiens, UniProt O75716); value = 91%
target = Serine/threonine-protein kinase WNK3 (WNK3, Homo sapiens, UniProt Q9BYP7); value = 100%
target = Serine/threonine-protein kinase 36 (STK36, Homo sapiens, UniProt Q9NRP7); value = 100%
target = Dual specificity mitogen-activated protein kinase kinase 4 (MAP2K4, Homo sapiens, UniProt P45985); value = 100%
target = Mitogen-activated protein kinase kinase kinase 3 (MAP3K3, Homo sapiens, UniProt Q99759); value = 84%
target = Epidermal growth factor receptor (EGFR, Homo sapiens, UniProt P00533, T790M); value = 91%
target = Ephrin type-A receptor 8 (EPHA8, Homo sapiens, UniProt P29322); value = 100%
target = Ribosomal protein S6 kinase alpha-2, N-terminal kinase domain (RPS6KA2, Homo sapiens, UniProt Q15349); value = 100%
target = Casein kinase II subunit alpha' (CSNK2A2, Homo sapiens, UniProt P19784); value = 83%
target = Proto-oncogene tyrosine-protein kinase Src (SRC, Homo sapiens, UniProt P12931); value = 92%
target = Mitogen-activated protein kinase kinase kinase 1 (MAP3K1, Homo sapiens, UniProt Q13233); value = 79%
target = Serine/threonine-protein kinase SBK1 (SBK1, Homo sapiens, UniProt Q52WX2); value = 93%
target = MAP/microtubule affinity-regulating kinase 4 (MARK4, Homo sapiens, UniProt Q96L34); value = 99%
target = Epidermal growth factor receptor (EGFR, Homo sapiens, UniProt P00533, del746-750); value = 100%
target = Serine/threonine-protein kinase D3 (PRKD3, Homo sapiens, UniProt O94806); value = 100%
target = Dual specificity mitogen-activated protein kinase kinase 1 (MAP2K1, Homo sapiens, UniProt Q02750); value = 88%
target = Mitogen-activated protein kinase kinase kinase 19 (MAP3K19, Homo sapiens, UniProt Q56UN5); value = 100%

Block 4
Target: His6 tag
Technique: AlphaScreen counter screen
Concentration: concentration not given
Endpoint: inhibition
Compound = O=C(O)c1ccccc1C=NNc1ncc(C(F)(F)F)cc1Cl; value = -5.7%
Compound = Cc1cncc2cccc(S(=O)(=O)N3CCCNC[C@@H]3C)c12; value = 3.5%
Compound = Cc1c(-c2ccccc2)sc2nc[nH]c(=O)c12; value = 6.25%
Compound = COc1ccc(-c2nnc3ccc(SCC(=O)N4CCC(C)CC4)nn23)cc1OC; value = 9.1%
Compound = Clc1ccc(-c2nnc3ccc(SCc4cccnc4)nn23)cc1; value = -1.5%
Compound = Nc1nc(Nc2ccc(S(N)(=O)=O)cc2)nn1C(=O)c1c(F)cccc1F; value = 5.15%
Compound = CCN(CCN(C)C)Cc1c(-c2ccc(F)cc2)[nH]c2ncccc12; value = 5%
Compound = COc1cc(OC)c(/C=C/S(=O)(=O)Cc2ccc(OC)c(NCC(=O)O)c2)c(OC)c1; value = 18.7%
Compound = O=C(CSc1ccc2nnc(-c3ccc(Cl)cc3)n2n1)Nc1nccs1; value = -8.15%
Compound = O=CNc1cccc2c1sc1nc[nH]c(=O)c12; value = 7.25%
Compound = COc1ccc(-c2nnc3ccc(SCC(=O)Nc4ccccc4F)nn23)cc1OC; value = -4.9%
Compound = CC(=O)Nc1ccc(C=C(C#N)c2nc3ccccc3s2)cc1; value = 13.4%

Some of these lines once more (block 3):
target = Dual specificity mitogen-activated protein kinase kinase 4 (MAP2K4, Homo sapiens, UniProt P45985); value = 100%
target = Mitogen-activated protein kinase kinase kinase 3 (MAP3K3, Homo sapiens, UniProt Q99759); value = 84%
target = Epidermal growth factor receptor (EGFR, Homo sapiens, UniProt P00533, T790M); value = 91%
target = Ephrin type-A receptor 8 (EPHA8, Homo sapiens, UniProt P29322); value = 100%
target = Ribosomal protein S6 kinase alpha-2, N-terminal kinase domain (RPS6KA2, Homo sapiens, UniProt Q15349); value = 100%
target = Casein kinase II subunit alpha' (CSNK2A2, Homo sapiens, UniProt P19784); value = 83%
target = Proto-oncogene tyrosine-protein kinase Src (SRC, Homo sapiens, UniProt P12931); value = 92%
target = Mitogen-activated protein kinase kinase kinase 1 (MAP3K1, Homo sapiens, UniProt Q13233); value = 79%
